Experimental data gathered from unrelated publications.
± gives the spread as reported.
Organism: Salmonella typhimurium

`COc1cccc(-c2n[nH]c(SCc3ccccn3)n2)c1OC`: “revertant colonies per plate” 123 (Ames test, preincubation; TA100; 0.50 mg/plate, without S9).
`Cc1cc(C(=O)NC(C)(C)COc2cccc3c2C(N)=NS(=O)(=O)N3)cc(C)n1` has a revertant ratio of 1.1 (Ames test, confirmatory; TA1535; 1000 µg/plate; reference: solvent control).
Under “revertant colonies per plate”, `CC(C)N(C)N=O` is recorded as 23 ± 3 (mutagenicity, Ames plate incorporation; TA1535; 1500 µg/plate, 3 d, without S9, methanol).
For `O=[N+]([O-])c1ccc(N2CCN(CCC(O)c3ccc(F)cc3)CC2)c(C(F)(F)F)c1` (stereo not drawn), the survival was 77% (SOS/umu test; TA1535/pSK1002; 0.004 mg/mL, 4 h, with S9, lower range).
`CN(CC(C)(C)C)N=O` — result for “revertant colonies per plate”: 211 ± 21 (mutagenicity, Ames plate incorporation; TA100; 2500 µg/plate, without S9, methanol).
With `N#C[C@@]1(n2ccc(N)nc2=O)O[C@H](CO)[C@@H](O)[C@H]1O` the viability was 102% (TA1537; 25 µM, without S9).
With `OC(CCN1CC=C(c2ccc(F)cc2)CC1)c1ccc(F)c2ccccc12` (stereo not drawn) the survival was 27.7% (SOS/umu test; TA1535/pSK1002; 0.031 mg/mL, 4 h, without S9, lower range).
`CN(N=O)c1ccc(F)cc1`: “revertant colonies per plate” 14.7 ± 4 (mutagenicity, Ames plate incorporation; TA1535; 50 µg/plate, 3 d, without S9, methanol).
With `O=[N+]([O-])c1ccc(N2CCC(NCCC(O)c3ccc(F)c4ccccc34)CC2)c(C(F)(F)F)c1` (stereo not drawn) the induction factor was 0.8 (genotoxicity, SOS/umu test; TA1535/pSK1002; 0.001 mg/mL, 4 h, without S9, lower range).
Under “revertant colonies per plate”, `CNC(=O)c1c(N(C)N=O)ncn1C` is recorded as 193 ± 20 (plate incorporation; TA100, water; 1500 µg/plate, without S9).
For `O=[N+]([O-])c1ccc(NC2CCNCC2)c(C(F)(F)F)c1`, the survival was 110% (SOS/umu test; TA1535/pSK1002, TGA medium; 0.001 mg/mL, 4 h, added: rat liver S9).
Under “revertants per plate”, `CC(=O)N1CCC(C(=O)N2CCN3C(=O)c4cc(-c5ccccc5)ccc4NC(=O)C3C2)CC1` (stereo not drawn) is recorded as 112 (TA100; 5000 µg/plate, with rat liver S9).

Excerpt of the above:
`CN(CC(C)(C)C)N=O` — result for “revertant colonies per plate”: 211 ± 21 (mutagenicity, Ames plate incorporation; TA100; 2500 µg/plate, without S9, methanol).
Under “revertant colonies per plate”, `CNC(=O)c1c(N(C)N=O)ncn1C` is recorded as 193 ± 20 (plate incorporation; TA100, water; 1500 µg/plate, without S9).
